Results from different studies.
Each numbered part is a random draw from the data of one study; scales do not carry over between parts. Changes are numbered by the printed parent chain.

Block 1
Target: Max dimerization protein 1, bHLH-zipper, MAX partner unstated (MXD1, Homo sapiens, UniProt Q05195, residues 56-136)
Technique: protein-binding microarray
Form: double-stranded DNA, one strand shown
Sample: in vitro
Concentration: not given
Setting: k-mer, scored over probes, only values ≥0.25
Direction: higher = stronger binding
Endpoint: E-score
Target sequence (chain): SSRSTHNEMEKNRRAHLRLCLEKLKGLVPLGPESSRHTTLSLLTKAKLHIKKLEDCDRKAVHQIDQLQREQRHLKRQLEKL
Strand = CACCGTGG; value = 0.26
Strand = CATGCCGG; value = 0.299
Strand = CACACGCA; value = 0.362
Strand = ATGTGATA; value = 0.285
Strand = ACGAGAAC; value = 0.26
Strand = GGCACGCC; value = 0.254
Strand = CGCATGTC; value = 0.444
Strand = AACACGTG; value = 0.491
Strand = CATGGGGC; value = 0.318
Strand = CGTGTCTA; value = 0.308
Strand = GCGTGGAA; value = 0.35
Strand = CACGCCCA; value = 0.31
Strand = AGGGGGGG; value = 0.25
Strand = CATGGTTC; value = 0.259
Strand = CACGAGGG; value = 0.445
Strand = CAAGCGTG; value = 0.396
Strand = GGGGGGAA; value = 0.322
Strand = CGTGTCGC; value = 0.328
Strand = ACAGGTGG; value = 0.263
Strand = CACGAGTC; value = 0.381
Strand = CCCCGCGC; value = 0.273
Strand = ATCTCGTG; value = 0.3
Strand = AAAAACGT; value = 0.259
Strand = AAATATTA; value = 0.288
Strand = ACATGCGT; value = 0.431

Block 2
Target: Histone acetyltransferase KAT6A, both winged helices, GST fusion (KAT6A, Homo sapiens, UniProt Q92794, residues 1-181)
Technique: protein binding microarray
Form: double-stranded DNA, one strand shown
Sample: in vitro
Concentration: not given
Setting: 8-mer, flanks averaged, mean of 2 arrays, mostly near background
Baseline: not given
Direction: higher = stronger binding
Endpoint: E-score
Residues (chain): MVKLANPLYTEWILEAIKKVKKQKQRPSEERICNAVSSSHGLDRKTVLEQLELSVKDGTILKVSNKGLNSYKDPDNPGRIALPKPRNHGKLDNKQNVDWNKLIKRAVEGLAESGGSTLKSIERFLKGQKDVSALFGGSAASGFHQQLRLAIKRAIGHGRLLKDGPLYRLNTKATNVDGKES
Strand = TACCGGCA; value = 0.217
Strand = AAGTGTAA; value = -0.176
Strand = ATATGTAA; value = -0.0827
Strand = GAATTGAC; value = -0.153
Strand = CAGTTTTA; value = -0.0835
Strand = ACAACAGC; value = 0.134
Strand = CTCCGCCC; value = 0.14
Strand = TGAAGCCA; value = -0.248
Strand = ATGCTAGC; value = 0.00656
Strand = ATTGGCGC; value = 0.187
Strand = CTAGCTAC; value = -0.116
Strand = GCGGATCC; value = 0.2
Strand = CCGAGTAA; value = 0.137
Strand = CCAATATA; value = -0.156
Strand = TACCAGGA; value = -0.0818
Strand = GATAGAGA; value = -0.125
Strand = ATTTGTAC; value = 0.00481
Strand = ACATAAGC; value = 0.0362
Strand = TTCCTAAA; value = -0.215
Strand = ATTCGCCG; value = 0.265
Strand = GCCTCTTA; value = -0.173
Strand = CAAAATAA; value = -0.178
Strand = AAGTTGGA; value = -0.165
Strand = GTTGTTGA; value = -0.0986
Strand = CCGTTGTA; value = 0.17

Block 3
Target: ATF7, bZIP domain (human)
Technique: DHFR protein complementation
Sample: yeast
Setting: single substitutions, most at no-binding floor
Baseline: wild-type JUN-FOS pair
Direction: higher = stronger binding
Endpoint: binding fitness
Starting sequence: JUN, bZIP domain (human); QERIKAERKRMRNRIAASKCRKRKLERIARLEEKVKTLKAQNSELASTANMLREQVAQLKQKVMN; partner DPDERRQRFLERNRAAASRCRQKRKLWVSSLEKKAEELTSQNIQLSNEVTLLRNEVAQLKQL
Variant = E54P; value = -1.53 natural log
Variant = K34R; value = -0.748 natural log
Variant = L45S; value = -1.52 natural log
Variant = L38F; value = -1.5 natural log
Variant = E33M; value = -1.1 natural log
Variant = L38D; value = -1.12 natural log
Variant = A40V; value = -0.999 natural log
Variant = K34V; value = -1.12 natural log
Variant = S43I; value = -0.929 natural log
Variant = Q41P; value = -1.5 natural log
Variant = I28N; value = -1.23 natural log
Variant = Q55E; value = -0.867 natural log
Variant = E54A; value = -0.894 natural log
Variant = N42H; value = -1.12 natural log
Variant = V56S; value = -1.48 natural log
Variant = K39D; value = -1.23 natural log
Variant = A40H; value = -0.971 natural log
Variant = K36Q; value = -0.933 natural log
Variant = A29Q; value = -0.982 natural log
Variant = N42K; value = -1.36 natural log
Variant = L38P; value = -1.5 natural log
Variant = E54Y; value = -0.991 natural log
Variant = R53Q; value = -1.31 natural log
Variant = A46H; value = -1.01 natural log
Variant = A29P; value = -1.3 natural log

Block 4
Target: TAR DNA-binding protein 43, full length, His tag (TARDBP, Homo sapiens, UniProt Q13148, residues 1-414)
Technique: RNA Bind-n-Seq
Form: RNA
Sample: in vitro
Concentration: 20 nM
Setting: 6-mer, flanks averaged, single round
Together with: 150 mM LiCl
Baseline: input library
Direction: higher = stronger binding
Endpoint: 6-mer enrichment (R)
Strand = GUGUAG; value = 1.35
Strand = UAAAGC; value = 0.858
Strand = ACACAC; value = 0.886
Strand = AGUCGG; value = 1.07
Strand = UUUUCC; value = 1.14
Strand = ACCAGC; value = 0.881
Strand = GCUGCG; value = 1.03
Strand = CCGUCU; value = 0.872
Strand = UCUUAC; value = 0.877
Strand = UGAACA; value = 0.866
Strand = ACGCCG; value = 0.871
Strand = GGCACC; value = 1.07
Strand = AUAAUC; value = 0.878
Strand = ACCAAA; value = 0.829
Strand = AUGUUU; value = 1.38
Strand = CAGGCU; value = 0.87
Strand = UCAGAU; value = 0.8
Strand = AGUUCG; value = 0.901
Strand = UGCGGU; value = 1.11
Strand = ACAUGU; value = 0.94
Strand = GACAAU; value = 0.868
Strand = CGCGAC; value = 0.872
Strand = CUUGCC; value = 0.982

Block 5
Effect on: peptide binding
Form: peptide
Sample: yeast competitive growth
Together with: B2-Cln2 chimera
Direction: direction not given
Endpoint: enrichment score
Sequence = KRNLLNEFDRII; value = 2.19
Sequence = PKNAKRNLSSEFAN; value = 0.151
Sequence = SMTDFYHSKRRLIFSK; value = -0.563
Sequence = SSEVARHLLFQSHM; value = 0.0442
Sequence = PKRAKRKLYTSEISSP; value = -0.116

Block 6
Target: Eukaryotic initiation factor 4A-I (EIF4A1, Homo sapiens, UniProt P60842, residues 1-406, full length assumed)
Sequence of UniProt P60842 (whole entry, looked up): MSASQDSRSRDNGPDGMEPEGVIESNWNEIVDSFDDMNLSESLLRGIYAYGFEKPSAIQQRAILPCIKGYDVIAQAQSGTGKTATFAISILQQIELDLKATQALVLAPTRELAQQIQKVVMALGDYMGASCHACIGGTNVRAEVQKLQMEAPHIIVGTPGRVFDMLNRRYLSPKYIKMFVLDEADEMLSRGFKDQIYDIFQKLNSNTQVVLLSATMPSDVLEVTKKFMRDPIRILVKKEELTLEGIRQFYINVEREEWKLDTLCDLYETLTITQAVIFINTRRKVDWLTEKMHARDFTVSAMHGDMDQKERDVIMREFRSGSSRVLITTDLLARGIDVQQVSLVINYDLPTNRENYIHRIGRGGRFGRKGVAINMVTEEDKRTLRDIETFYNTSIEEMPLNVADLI
Technique: RNA Bind-n-Seq
Form: RNA
Sample: in vitro
Concentration: 90 pmol
Setting: 4-mer, random 30-nt RNA, single round
Together with: 3 µM DMDA-PatA, 2 mM ADP, 2 mM phosphate
Baseline: input library
Direction: higher = stronger binding
Endpoint: 4-mer enrichment
Strand = GGAU; value = 0.9 fold
Strand = ACGC; value = 0.683 fold
Strand = AGGU; value = 1.15 fold
Strand = GGGA; value = 1.19 fold
Strand = CUAA; value = 0.686 fold
Strand = GCGG; value = 1.53 fold
Strand = GGUG; value = 1.83 fold
Strand = AAUU; value = 1.04 fold
Strand = CCUU; value = 0.576 fold
Strand = GUGC; value = 1.3 fold
Strand = UUCA; value = 0.816 fold
Strand = GACC; value = 0.625 fold
Strand = ACUU; value = 0.633 fold
Strand = CUGG; value = 0.714 fold
Strand = GUGA; value = 1.78 fold
Strand = GGGG; value = 1.22 fold
Strand = AUUG; value = 0.998 fold
Strand = GAUU; value = 0.96 fold
Strand = GUCC; value = 0.626 fold
Strand = CAAG; value = 0.983 fold
Strand = UCGG; value = 0.726 fold
Strand = UUUA; value = 1.12 fold
Strand = UCAA; value = 0.821 fold

Excerpt of the above (block 4):
Strand = ACAUGU; value = 0.94
Strand = CAGGCU; value = 0.87
Strand = AGUCGG; value = 1.07
Strand = CCGUCU; value = 0.872
Strand = CGCGAC; value = 0.872
Strand = ACCAAA; value = 0.829
Strand = UCUUAC; value = 0.877
Strand = UAAAGC; value = 0.858
Strand = AGUUCG; value = 0.901
Strand = GACAAU; value = 0.868
Strand = UGAACA; value = 0.866
Strand = UGCGGU; value = 1.11
Strand = AUGUUU; value = 1.38
Strand = CUUGCC; value = 0.982
Strand = GUGUAG; value = 1.35
